Published values collected from several papers.
Each line is one published result; not all experiments were run side by side.

Under “hypoglycaemia-related adverse event”, `OC[C@H]1O[C@@H](c2ccc(F)c(Cc3cc4ccccc4s3)c2)[C@H](O)[C@@H](O)[C@@H]1O` is recorded as 4% (Japanese patients, type 1 diabetes; oral, 50 mg/day, onset day 11; baseline: patients).
`COc1cccc(OC)c1-c1cc(C(=O)NC2(C(=O)O)C3CC4CC(C3)CC2C4)nn1-c1ccc(C(=O)N(C)CCCN(C)CCCN(C)C(=O)CN2CCN(CC(=O)[O-])CCN(CC(=O)[O-])CCN(CC(=O)[O-])CC2)cc1C(C)C.[177Lu+3]` (stereo not drawn) — result for “tumour-to-small intestine ratio”: 6.57 (mouse HT-29 xenograft; 4 h, biodistribution; baseline: tumour over small intestine).
`Cc1cc(C)c(CNC(=O)c2cc(Cl)c3c(c2C)O[C@@](C)([C@H]2CC[C@H](N(C)C)CC2)O3)c(=O)[nH]1` gave a cumulative excretion of 15.6% (measured: total radioactivity; human, fasted, urine; oral, 200 mg [14C] single dose, 0 to 360 h; baseline: dose).
`O=C(c1cccnc1-c1ccncc1)N1CCC(O)(Cc2ccccc2)CC1` — result for “participants with adverse events”: 83.3% (healthy Japanese adults; oral, 100-300 mg twice daily, 21 days).
`Cn1ncnc1[C@H]1c2n[nH]c(=O)c3cc(F)cc(c23)N[C@@H]1c1ccc(F)cc1` — result for “patients with adverse event”: 12% (measured: Epistaxis; advanced solid tumour patients; oral, 0.5 mg single dose, alone or 2 with itraconazole).
For `N[C@@H](Cc1ccc(O)c(O)c1)C(=O)O`, “peak dyskinesia disability score” read 3 (MPTP-lesioned marmoset, dyskinetic; 20 mg/kg, scale 0-3; direction not given).
`N#Cc1ccc2c(c1)[C@H]1CCCN(C(=O)c3ccc4[nH]cnc4c3)[C@H]1C2`: “total testosterone level” 11.1 nmol/L (human males; 160 mg, end of trial).
Under “incidence of Dyspepsia”, `NC1(C(=O)N[C@@H](CCO)c2ccc(Cl)cc2)CCN(c2nc[nH]c3nccc2-3)CC1` is recorded as 0% (metastatic CRPC patients; 480 mg b.i.d., grade 3 to 4, treatment-related, together with: enzalutamide 160 mg daily).
Under “share of ECG observations”, `CCOc1c([C@H](C)n2nc(C)c3c(N)ncnc32)cc(Cl)c(F)c1[C@@H]1CNC(=O)C1` is recorded as 95.1% (measured: QRS ≤ 100 ms; previously treated B-cell malignancy; oral, dose not given, baseline below thresholds, all doses).
The DT50 of `COc1ccnc(C(=O)O)c1O` is reported as 1000 days (aerobic soil incubation; soil; worst-case terminal value, for exposure modelling).
The tmax,ss of `CC(C)C[C@H](NC(=O)[C@H](CC(C)C)NC(=O)[C@H](Cc1c[nH]c2ccccc12)NC(=O)[C@H](CCC(=O)O)NC(=O)[C@@H](NC(=O)[C@H](Cc1ccccc1)NC(=O)[C@H](CCC(=O)O)NC(=O)[C@H](CCCCNC(=O)COCCOCCNC(=O)COCCOCCNC(=O)CC[C@H](NC(=O)CCCCCCCCCCCCCCCCCCC(=O)O)C(=O)O)NC(=O)[C@H](C)NC(=O)[C@H](CCCCN)NC(=O)[C@H](CCCCN)NC(=O)[C@H](CCC(=O)O)NC(=O)[C@H](CC(=O)O)NC(=O)[C@H](CC(C)C)NC(=O)[C@H](Cc1ccc(O)cc1)NC(=O)[C@H](CCCCN)NC(=O)[C@H](CO)NC(=O)[C@H](Cc1ccc(O)cc1)NC(=O)[C@H](CC(=O)O)NC(=O)[C@H](CO)NC(=O)[C@@H](NC(=O)[C@H](Cc1ccccc1)NC(=O)[C@@H](NC(=O)CNC(=O)[C@H](CCC(N)=O)NC(=O)C(C)(C)NC(=O)[C@@H](N)Cc1c[nH]cn1)[C@@H](C)O)[C@@H](C)O)C(C)C)C(=O)N[C@@H](CCC(=O)O)C(=O)NCC(=O)NCC(=O)N1CCC[C@H]1C(=O)N[C@@H](CO)C(=O)N[C@@H](CO)C(=O)NCC(N)=O` is reported as 12 h (human, plasma; subcutaneous, 16 mg once weekly, week 20, median).
`O=C(O)CCC(=O)O.[2H]C([2H])([2H])Oc1cc(C)c2[nH]ccc2c1CN1CC[C@@H](C2CC2)C[C@H]1c1ccc(C(=O)O)cc1`: “subjects with sinus bradycardia TEAE” 37.5% (multiple ascending dose; healthy Chinese subjects; 125 mg twice daily).
With `CC1(C)CCC(CN2CCN(c3ccc(C(=O)NS(=O)(=O)c4ccc(NCC5CCOCC5)c([N+](=O)[O-])c4)c(Oc4cnc5[nH]ccc5c4)c3)CC2)=C(c2ccc(Cl)cc2)C1` the Vss was 3.22 L/kg (human female, plasma; oral).
Under “any treatment-related adverse event”, `C=CCN1CC(=O)N2[C@@H](Cc3ccc(O)cc3F)C(=O)N(Cc3cccc(N4CC(N5CCN(CC)CC5)C4)n3)C[C@@H]2N1C(=O)NCc1ccccc1` is recorded as 0% (advanced solid tumour patients; oral, 120 mg twice daily, grade ≥3, dose-escalation).
For `CS(=O)(=O)c1ccc(-c2nc3ccccc3n2CC(=O)N/N=C/c2ccc(Cl)cc2)cc1`, “ulcer preventive index” read 93.5% (rat, stomach; concentration not given, 4 h; baseline: normal control).
The recovery of `N#C[C@@]1(c2ccc3c(N)ncnn23)O[C@H](CO)[C@@H](O)[C@H]1O` is reported as 96.7% (plasma protein binding; rat plasma; 1 µM, time not given).
With `COc1cc2nccc(Oc3ccc(NC(=O)NC4CC4)c(Cl)c3)c2cc1C(N)=O` the Vz/F decrease was 41.4% (Sprague-Dawley rats male, plasma; oral, dose not given, together with: posaconazole; baseline: without posaconazole).
For `CC(C)C[C@H](NC(=O)[C@@H](Cc1c[nH]c2ccccc12)NC(=O)[C@H](Cc1ccc(O)cc1)NC(=O)[C@H](CO)NC(=O)[C@H](Cc1c[nH]c2ccccc12)NC(=O)[C@H](Cc1c[nH]cn1)NC(=O)[C@@H]1CCC(=O)N1)C(=O)N[C@@H](CCCNC(=N)N)C(=O)N1CCC[C@H]1C(=O)NCC(N)=O`, “patients, serious adverse events” read 0% (Chinese CPP children, overall; intramuscular, 22.5 mg, 12 months, day 1, month 6).

A few entries again:
`COc1cccc(OC)c1-c1cc(C(=O)NC2(C(=O)O)C3CC4CC(C3)CC2C4)nn1-c1ccc(C(=O)N(C)CCCN(C)CCCN(C)C(=O)CN2CCN(CC(=O)[O-])CCN(CC(=O)[O-])CCN(CC(=O)[O-])CC2)cc1C(C)C.[177Lu+3]` (stereo not drawn) — result for “tumour-to-small intestine ratio”: 6.57 (mouse HT-29 xenograft; 4 h, biodistribution; baseline: tumour over small intestine).
The DT50 of `COc1ccnc(C(=O)O)c1O` is reported as 1000 days (aerobic soil incubation; soil; worst-case terminal value, for exposure modelling).
